# Assay results pooled from the literature.
# Compare with care: the assays were run in different laboratories. “And” joins repeats or separate records; there may be more than shown. ± gives the spread as reported.
# ELANE: Neutrophil elastase (ELANE, Homo sapiens, UniProt P08246)
# TOP2A: DNA topoisomerase 2-alpha (TOP2A, Homo sapiens, UniProt P11388)
SMILES,target,test,system,conditions,scale,endpoint,value
CC1=C(/C=C/C(C)=C/C=C/C(C)=C/C(=O)O)C(C)(C)CCC1,"Cellular retinoic acid-binding protein 2 (CRABP2, Homo sapiens, UniProt P29373, R133K/Y135F)",tryptophan fluorescence quenching,,concentration not given,"baseline: R132K:Y134F versus wild type, higher = weaker binding",binding affinity fold decrease,~50 fold
c1coc(-c2n[nH]cc2-c2ccnc3ccccc23)c1,"Cell cycle protein kinase DBF2 (DBF2, Candida albicans, UniProt Q59KM8)","kinase binding, MIB/MS competition",Candida albicans lysate,1 µM,"baseline: DMSO, negative = stronger binding",log2 fold change,-0.06
CC1(COc2ccc3c(c2)ncn3-c2ccc3cccc(N4CCC(N)CC4)c3n2)COC1,"Serine/threonine-protein kinase N1 (PKN1, Homo sapiens, UniProt Q16512)",inhibitor,,,,Hill slope,-0.646
c1ccc(CCCCCOCCc2ccc3[nH]cc(C4CCCCC4)c3c2)cc1,"ATP2A2 (Sus scrofa, UniProt P11607)","ATPase Vmax increase, activator",pig microsomes,0.1 to 50 µM,baseline: vehicle,Emax,19 to 25%
N#C/C(=C\c1ccc(O)c(O)c1)C(N)=S,"Protein-glutamine gamma-glutamyltransferase (TGM2, Homo sapiens, UniProt P21980)","enzyme activity, inhibitor",,"concentration not given, reversibility, without calcium",,inhibition after dialysis,> 90%
CN(C)C(=O)c1cc2cnc(Nc3ccc(N4CCNCC4)cn3)nc2n1C1CCCC1,ELANE,,neutrophil supernatant,"0.3 to 10 µM, cell-free",,elastase activity,no effect
O=c1nc(SCc2cc(F)cc(C(F)(F)F)c2)nc(SCc2ccc3ncsc3c2)[nH]1,TOP2A,decatenation,,7.8 µM,,mean decatenated DNA,100%
CC(=O)NCCCC[C@H](NC(=O)CNC(=O)[C@H](CCCNC(=N)N)NC(C)=O)C(=O)Nc1ccc2c(C)cc(=O)oc2c1,human Y386F/Y782F mutant enzyme,"substrate, fluorogenic",,,,Km,39 ± 3 µM
CC(=O)N[C@H](C(=O)N1C[C@H](O)C[C@H]1C(=O)NCc1ccc(-c2scnc2C)cc1)C(C)(C)SCCCCCCNC(=O)C[C@@H]1N=C(c2ccc(Cl)cc2)c2c(sc(C)c2C)-n2c(C)nnc21,"BRD4/VHL, BD1; with elongins B/C (Homo sapiens, UniProt O60885+P40337)","ternary complex binding, ITC",,"25 °C, unit not given, added: VHL-ElonginB-ElonginC, PROTAC:Brd4^BD1","baseline: binary binding to VHL-ElonginB-ElonginC, positive = cooperative",ΔpKd ternary minus binary,-0.1 ± 0.2
CC[C@H](NCc1ccc(-c2cccc(-c3cccc(/C=C/C(=O)c4ccc(OC)cc4)c3)c2C)nc1OC)C(N)=O,"Programmed cell death 1 ligand 1 (CD274, Homo sapiens, UniProt Q9NZQ7)","degrader, western blot",HL-60,1 µM,,degradation,< 5%
c1ccc(-c2n[nH]cc2-c2ccnc3ccccc23)nc1,"Mitogen-activated protein kinase MKC1 (MKC1, Candida albicans, UniProt P43068)","kinase binding, competitor, MIB/MS competition, measured: MKC1",Candida albicans cell lysate,1 µM,baseline: DMSO,log2 fold change,1.32
CC(Oc1ccccc1)C(=O)NCc1ccccn1 (stereo not drawn),"DNA (cytosine-5)-methyltransferase 3A, PWWP domain (DNMT3A, Homo sapiens, UniProt Q9Y6K1)","binding, affinity selection mass spectrometry",,,baseline: other proteins in batch,fold enrichment,0.679
CCCC[C@H](NC(=O)[C@H](C)c1c(C)[nH]c2ccc(O)cc12)c1ncc(-c2cc3ccccc3nc2OC)[nH]1,"Adenosine receptor A1 (ADORA1, Homo sapiens, UniProt P30542)",,,,,Hill coefficient,0.7
OC[C@H]1OC(O)[C@H](O)[C@@H](O)[C@@H]1O (stereo partly drawn),"Hexokinase-3 (HK3, Homo sapiens, UniProt P52790, R807A)",substrate inhibitor,,,baseline: wild type,Ki fold increase,≥ 70 fold
C[C@@H]1C[C@H](Nc2ccccc2)c2cc(F)ccc2N1C(=O)c1cncnc1,"Ecdysone receptor (Aedes albopictus, UniProt Q9U3Y4)","ligand binding, inhibitor",intact cells,added: [3H]ponasterone A,direction not given,pIC50 Z-score,-1.25
Nc1ncnc2c1ncn2[C@@H]1O[C@H](COP(=O)(O)CP(=O)(O)OP(=O)(O)O)[C@@H](O)[C@H]1O,"P2X purinoceptor 1 (P2RX1, Homo sapiens, UniProt P51575, D97A)",calcium influx,,31.6 nM,baseline: ionomycin response,calcium influx,1.9% and 1.41% and 5.65% and 4.39%
C=CC(=O)N1CCC(COCC(=O)N2CCN(c3nc(-c4cnc(N)nc4C(F)F)nc(N4CCOC[C@@H]4C)n3)CC2)CC1,"Serine/threonine-protein kinase TAO3 (TAOK3, Homo sapiens, UniProt Q9H2K8)",KINOMEscan,,1 µM,,remaining binding,100%
C[C@@H](O)[C@H](NC(=O)[C@H](Cc1ccc(O)cc1)NC(=O)[C@H](Cc1ccc(O)cc1)NC(=O)[C@H](CO)NC(=O)[C@H](CCCNC(=N)N)NC(=O)[C@H](Cc1c[nH]cn1)NC(=O)[C@@H](N)Cc1c[nH]c2ccccc12)C(=O)N[C@@H](Cc1c[nH]c2ccccc12)C(=O)N[C@@H](CC(N)=O)C(N)=O,"Programmed cell death 1 ligand 1, with PD-1 (CD274, Homo sapiens, UniProt Q9NZQ7)","PD-1 binding, inhibitor, competitive ELISA",,2.5 µM,baseline: PBS over 2% BSA,fold reduction of blocking,22 fold
CC(C)OCCn1c(=S)[nH]c(=O)c2[nH]ccc21,"Myeloperoxidase (MPO, Homo sapiens, UniProt P05164)","H2O2 consumption, inhibitor, H2O2 electrode",,"10 µM, 0.3 s",,H2O2 concentration,-0.708 µM
Nc1ncnc2c1ncn2[C@@H]1O[C@H](CO[P@](=O)(O)O[P@](=O)(O)O[P@@](=O)(O)S)[C@@H](O)[C@H]1O,"GUK1 (Homo sapiens, UniProt Q16774)",ITC,,molar ratio 2.83,,ΔH,-0.293 kcal/mol
Cc1nc(CSc2nc(SCc3cc(F)cc(C(F)(F)F)c3)nc(=O)[nH]2)cs1,TOP2A,decatenation,,31.25 µM,,mean decatenated DNA,90.5%
NCCCS(=O)(=O)O,"Sodium- and chloride-dependent taurine transporter (SLC6A6, Homo sapiens, UniProt P31641, G62A)","binding, microscale thermophoresis",,"488 nM, room temperature, added: 50 nM labelled protein",higher = more binding,normalised MST signal,0.024
O=c1cc(-c2ccc(OS(=O)(=O)[O-])cc2)oc2cc(OS(=O)(=O)[O-])cc(OCc3cccc(COc4cc(OS(=O)(=O)[O-])cc5oc(-c6ccc(OS(=O)(=O)[O-])cc6)cc(=O)c45)c3)c12.[Na+].[Na+].[Na+].[Na+],ELANE,"enzyme activity, inhibitor",,added: chromogenic substrate,,Hill slope,2.7
O=c1nc(SCc2cc(F)cc(C(F)(F)F)c2)nc(SCc2ccc3sccc3c2)[nH]1,TOP2A,ATPase activity,,"15.6 µM, added: ATP 0.5 mM",,ATP hydrolysis rate,0.57 µM/min and 0.934 µM/min
CCCOC(=O)C1CCN(C(=O)c2ccc(N(C)Cc3cnc4nc(N)nc(N)c4n3)cc2)CC1,"Pteridine reductase 1 (Leishmania major, UniProt Q01782)",,,hDHFR weight 10,"baseline: LmPTR1, LmDHFR over hDHFR, 1.0 selective, 0.0 non-selective",partition index,0.89
Nc1ccc(C(=O)O)cc1,"Bestrophin-2a (BEST2, Homo sapiens, UniProt Q8NFU1)",whole-cell patch clamp,HEK293 transiently expressing channel,"concentration not given, membrane potential -20 mV",,current density,-65.5 pA/pF and -47.1 pA/pF and -33.6 pA/pF and -16.8 pA/pF and -74.5 pA/pF and -59.1 pA/pF
[O-][S+]1CCCCS1 (stereo not drawn),"Superoxide dismutase [Cu-Zn] (SOD1, Homo sapiens, UniProt P00441, G94A)",LC-MS,human whole blood,"5000 µM, 1 h, 37 °C",,SOD1 monomer fraction,8.28%
O=c1nc(SCc2cc(F)cc(C(F)(F)F)c2)nc(SCc2cccc(C(F)(F)F)c2)[nH]1,TOP2A,decatenation,,"31.25 µM, replicate 2",,decatenated DNA,20.1%
CC(C(=O)Nc1c(F)cccc1F)N1CCN(c2ccccc2)CC1 (stereo not drawn),"Short transient receptor potential channel 7 (Mus musculus, UniProt Q9WVC5)","ion current, GCaMP6 calcium imaging",HEK293 transfected,"20 µM, unit not given, added: 50 µM OAG",baseline: control,peak Ca2+ influx,1.04 ± 0.03
O=c1nc(SCc2cc(F)cc(C(F)(F)F)c2)nc(SCc2nc3ccccc3[nH]2)[nH]1,TOP2A,decatenation,,"31.25 µM, replicate 2",,decatenated DNA,48%
O=C(COP(=O)(O)O)[C@@H](O)[C@H](O)[C@H](O)COP(=O)(O)O,"Coatomer subunit alpha (Homo sapiens, UniProt P53621)","thermal proteome profiling, measured: COPA",HepG2 cell lysate,"concentration not given, 57 over 37 °C, mean",baseline: compound over control,thermal stability ratio,0.545
CC1(C)CC2(C)OC(=O)NC2(C)c2ccccc21 (stereo not drawn),"Histone-lysine N-methyltransferase SETDB1, triple tudor domain (SETDB1, Homo sapiens, UniProt Q15047)","binding, affinity selection mass spectrometry",,,baseline: other proteins in batch,log fold enrichment,-0.146
O=c1nc(SCc2cc(F)cc(C(F)(F)F)c2)nc(SCc2ccc3ccccc3n2)[nH]1,TOP2A,decatenation,,"7.8 µM, replicate 2",,decatenated DNA,100%

# Repeated from above:
SMILES,target,test,system,conditions,scale,endpoint,value
O=c1nc(SCc2cc(F)cc(C(F)(F)F)c2)nc(SCc2nc3ccccc3[nH]2)[nH]1,TOP2A,decatenation,,"31.25 µM, replicate 2",,decatenated DNA,48%
O=C(COP(=O)(O)O)[C@@H](O)[C@H](O)[C@H](O)COP(=O)(O)O,"Coatomer subunit alpha (Homo sapiens, UniProt P53621)","thermal proteome profiling, measured: COPA",HepG2 cell lysate,"concentration not given, 57 over 37 °C, mean",baseline: compound over control,thermal stability ratio,0.545
CC1(C)CC2(C)OC(=O)NC2(C)c2ccccc21 (stereo not drawn),"Histone-lysine N-methyltransferase SETDB1, triple tudor domain (SETDB1, Homo sapiens, UniProt Q15047)","binding, affinity selection mass spectrometry",,,baseline: other proteins in batch,log fold enrichment,-0.146
O=c1nc(SCc2cc(F)cc(C(F)(F)F)c2)nc(SCc2ccc3ccccc3n2)[nH]1,TOP2A,decatenation,,"7.8 µM, replicate 2",,decatenated DNA,100%
